Experimental data gathered from unrelated publications.
Numbered parts are unrelated; each lists some results of a single study. “And” joins repeats or separate records; there may be more than shown.
Sequence of UniProt Q13237 (whole entry, looked up): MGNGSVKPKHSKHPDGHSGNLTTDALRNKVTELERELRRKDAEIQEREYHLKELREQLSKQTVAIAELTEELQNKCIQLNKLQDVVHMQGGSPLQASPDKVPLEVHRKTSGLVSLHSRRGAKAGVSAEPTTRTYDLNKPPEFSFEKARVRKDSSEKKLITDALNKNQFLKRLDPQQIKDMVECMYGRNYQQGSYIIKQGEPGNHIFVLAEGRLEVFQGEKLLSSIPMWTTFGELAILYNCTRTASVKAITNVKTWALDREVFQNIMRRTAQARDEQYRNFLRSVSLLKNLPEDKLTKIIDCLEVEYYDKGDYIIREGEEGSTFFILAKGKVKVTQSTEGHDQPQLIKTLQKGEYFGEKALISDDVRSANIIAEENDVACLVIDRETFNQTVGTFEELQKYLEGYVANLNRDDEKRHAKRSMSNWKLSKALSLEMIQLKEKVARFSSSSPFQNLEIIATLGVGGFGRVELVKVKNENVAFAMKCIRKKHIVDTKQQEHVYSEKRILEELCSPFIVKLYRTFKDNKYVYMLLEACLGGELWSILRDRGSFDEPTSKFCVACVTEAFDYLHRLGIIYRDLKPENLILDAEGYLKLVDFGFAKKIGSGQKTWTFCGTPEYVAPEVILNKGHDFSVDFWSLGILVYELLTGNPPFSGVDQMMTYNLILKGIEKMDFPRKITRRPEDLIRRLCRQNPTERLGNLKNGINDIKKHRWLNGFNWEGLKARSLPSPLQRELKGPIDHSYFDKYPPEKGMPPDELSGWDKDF
Sequence of UniProt Q9BUB5 (whole entry, looked up): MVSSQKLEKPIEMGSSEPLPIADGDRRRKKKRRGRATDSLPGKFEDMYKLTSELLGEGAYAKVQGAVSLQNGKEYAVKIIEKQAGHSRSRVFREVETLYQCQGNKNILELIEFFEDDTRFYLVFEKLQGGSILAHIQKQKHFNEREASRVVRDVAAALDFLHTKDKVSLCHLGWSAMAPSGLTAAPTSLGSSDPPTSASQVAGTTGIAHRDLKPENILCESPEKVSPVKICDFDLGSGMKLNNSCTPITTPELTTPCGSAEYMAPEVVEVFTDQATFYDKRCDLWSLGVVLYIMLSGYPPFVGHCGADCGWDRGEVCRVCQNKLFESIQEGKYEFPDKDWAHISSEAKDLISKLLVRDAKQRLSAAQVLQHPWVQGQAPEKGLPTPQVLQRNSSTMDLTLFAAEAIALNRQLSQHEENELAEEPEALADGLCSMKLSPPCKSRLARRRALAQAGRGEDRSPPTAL
Sequence of UniProt O60674 (whole entry, looked up): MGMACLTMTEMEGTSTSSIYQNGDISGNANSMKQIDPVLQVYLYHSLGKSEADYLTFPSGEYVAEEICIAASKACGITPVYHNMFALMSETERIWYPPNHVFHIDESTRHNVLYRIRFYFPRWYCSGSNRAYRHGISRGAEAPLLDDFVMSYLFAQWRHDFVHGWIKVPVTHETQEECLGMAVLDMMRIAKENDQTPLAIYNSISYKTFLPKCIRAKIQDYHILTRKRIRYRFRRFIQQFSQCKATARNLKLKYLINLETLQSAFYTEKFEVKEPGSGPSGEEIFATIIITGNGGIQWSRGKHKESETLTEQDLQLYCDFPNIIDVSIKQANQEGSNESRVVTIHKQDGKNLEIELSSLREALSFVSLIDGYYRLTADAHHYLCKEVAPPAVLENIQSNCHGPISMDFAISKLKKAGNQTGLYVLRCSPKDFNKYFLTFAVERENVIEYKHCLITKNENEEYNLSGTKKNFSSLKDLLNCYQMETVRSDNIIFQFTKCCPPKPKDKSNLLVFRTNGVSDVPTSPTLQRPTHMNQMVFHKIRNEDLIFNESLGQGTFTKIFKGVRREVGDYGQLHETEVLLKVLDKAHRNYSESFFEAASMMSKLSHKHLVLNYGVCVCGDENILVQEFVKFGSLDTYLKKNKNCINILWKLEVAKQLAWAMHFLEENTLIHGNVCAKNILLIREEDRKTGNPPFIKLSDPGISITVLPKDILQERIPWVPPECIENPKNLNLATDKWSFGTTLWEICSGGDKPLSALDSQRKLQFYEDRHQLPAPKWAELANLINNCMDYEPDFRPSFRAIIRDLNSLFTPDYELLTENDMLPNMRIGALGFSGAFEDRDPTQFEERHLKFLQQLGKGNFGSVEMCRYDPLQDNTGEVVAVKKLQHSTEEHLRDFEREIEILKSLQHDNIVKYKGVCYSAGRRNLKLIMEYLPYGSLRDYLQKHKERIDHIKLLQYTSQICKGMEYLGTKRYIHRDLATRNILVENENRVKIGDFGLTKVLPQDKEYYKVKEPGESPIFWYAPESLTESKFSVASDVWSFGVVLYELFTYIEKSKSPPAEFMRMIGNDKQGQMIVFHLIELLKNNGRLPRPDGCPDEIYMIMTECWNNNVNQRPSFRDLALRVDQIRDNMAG
Sequence of UniProt P42336 (whole entry, unmodified, looked up): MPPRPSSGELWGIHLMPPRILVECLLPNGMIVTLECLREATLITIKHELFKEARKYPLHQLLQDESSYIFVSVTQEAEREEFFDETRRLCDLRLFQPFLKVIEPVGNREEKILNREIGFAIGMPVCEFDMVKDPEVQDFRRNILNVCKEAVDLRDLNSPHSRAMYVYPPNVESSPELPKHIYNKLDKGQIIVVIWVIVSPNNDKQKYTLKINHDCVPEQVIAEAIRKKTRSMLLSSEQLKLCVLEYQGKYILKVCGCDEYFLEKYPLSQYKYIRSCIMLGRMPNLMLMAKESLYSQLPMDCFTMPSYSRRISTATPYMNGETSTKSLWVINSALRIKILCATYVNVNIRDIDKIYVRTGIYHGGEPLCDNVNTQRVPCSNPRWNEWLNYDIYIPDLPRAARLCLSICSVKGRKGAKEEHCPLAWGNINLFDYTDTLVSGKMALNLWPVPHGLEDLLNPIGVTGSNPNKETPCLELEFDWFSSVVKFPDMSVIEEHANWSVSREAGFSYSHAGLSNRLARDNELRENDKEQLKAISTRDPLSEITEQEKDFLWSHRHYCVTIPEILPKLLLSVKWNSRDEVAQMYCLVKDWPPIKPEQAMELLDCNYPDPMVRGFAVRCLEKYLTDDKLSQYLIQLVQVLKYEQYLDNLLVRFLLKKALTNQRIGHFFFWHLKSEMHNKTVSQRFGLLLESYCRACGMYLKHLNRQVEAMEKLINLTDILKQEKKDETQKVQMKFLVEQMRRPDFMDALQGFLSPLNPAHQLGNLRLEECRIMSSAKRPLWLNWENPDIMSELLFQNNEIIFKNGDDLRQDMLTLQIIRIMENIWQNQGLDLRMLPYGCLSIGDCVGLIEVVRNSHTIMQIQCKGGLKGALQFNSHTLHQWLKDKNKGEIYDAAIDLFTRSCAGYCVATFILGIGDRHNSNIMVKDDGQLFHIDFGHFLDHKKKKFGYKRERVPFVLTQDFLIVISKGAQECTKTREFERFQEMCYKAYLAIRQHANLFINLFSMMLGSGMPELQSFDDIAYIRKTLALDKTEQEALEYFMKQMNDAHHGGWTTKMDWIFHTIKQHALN

Series 1
SMILES: COc1cc(-c2nc3ccc(C(=O)NCCCN4CCN(c5cccc(C)c5C)CC4)cc3n2C2CCC2)cc(OC)c1OC
The remaining binding was 95% (PIP5K1C (Homo sapiens, UniProt O60331); binding, competition with immobilised ligand; 1 µM).
The remaining binding was 87% (PRKAA1 (Homo sapiens, UniProt Q13131); binding, competition with immobilised ligand; 1 µM).
MKNK1 (Homo sapiens, UniProt Q9BUB5); binding, competition with immobilised ligand; 1 µM — remaining binding: 94%.
It gave 71% for remaining binding (PRKG2 (Homo sapiens, UniProt Q13237); binding, competition with immobilised ligand; 1 µM).
PIK3CA (Homo sapiens, UniProt P42336, H1047L); binding, competition with immobilised ligand; 1 µM — remaining binding: 84%.
It gave 58% for remaining binding (FYN (Homo sapiens, UniProt P06241); binding, competition with immobilised ligand; 1 µM).
CLK1 (Homo sapiens, UniProt P49759); binding, competition with immobilised ligand; 1 µM — remaining binding: 96%.
It gave 100% for remaining binding (MTOR (Homo sapiens, UniProt P42345); binding, competition with immobilised ligand; 1 µM).
PLK3 (Homo sapiens, UniProt Q9H4B4); binding, competition with immobilised ligand; 1 µM — remaining binding: 78%.
It gave 99% for remaining binding (FLT3 ITD human; KINOMEscan; 1000 nM; baseline: DMSO control).
It gave 100% for remaining binding (RIOK1 (Homo sapiens, UniProt Q9BRS2); binding, competition with immobilised ligand; 1 µM).
The remaining binding was 78% (MAP3K15 (Homo sapiens, UniProt Q6ZN16); binding, competition with immobilised ligand; 1 µM).
LIM domain kinase 2 (LIMK2, Homo sapiens, UniProt P53671); binding, competition with immobilised ligand; 1 µM — remaining binding: 100%.
It gave 70% for remaining binding (KDR (Homo sapiens, UniProt P35968); binding, competition with immobilised ligand; 1 µM).
It gave 100% for remaining binding (Tyrosine-protein kinase JAK2, JH1 (JAK2, Homo sapiens, UniProt O60674); binding, competition with immobilised ligand; 1 µM).
The remaining binding was 100% (CAMKK1 (Homo sapiens, UniProt Q8N5S9); binding, competition with immobilised ligand; 1 µM).

Series 2
Cell line: MDA-MB-231
Observed: cell viability
Technique: CellCounting-Lite
Concentration: 666.7 nM
Temperature: 37 °C
Direction: higher = more viable cells
`CCn1cnc2c(NCc3nc4cc(Cl)c(Cl)cc4[nH]3)nc(N3CCC(NC(C)=O)CC3)nc21` gave a luminescence signal of 37300 a.u. and 52800 a.u. and 44000 a.u.
The luminescence signal of `CCn1cnc2c(NCc3nc4cc(Cl)c(Cl)cc4[nH]3)nc(N3CCN(Cc4ccncc4)CC3)nc21` is reported as 17800 a.u. and 27300 a.u. and 15300 a.u.
With `CCn1cnc2c(NCc3nc4cc(Cl)c(Cl)cc4[nH]3)nc(N3CCN(C(=O)CNC(C)=O)CC3)nc21` the luminescence signal was 9820 a.u. and 9370 a.u. and 10600 a.u.
The luminescence signal of `CCn1cnc2c(NCc3nc4cc(Cl)c(Cl)cc4[nH]3)nc(N3CCN(c4ccccn4)CC3)nc21` is reported as 209000 a.u. and 296000 a.u. and 265000 a.u.
The luminescence signal of `CCn1cnc2c(NCc3nc4cc(Cl)c(Cl)cc4[nH]3)nc(N3CCN(C(=O)c4cccnc4)CC3)nc21` is reported as 12400 a.u. and 14400 a.u. and 17200 a.u.
The luminescence signal of `CC(=O)N1CCN(c2nc(NCc3nc4cc(Cl)c(Cl)cc4[nH]3)c3ncn(-c4cnn(C)c4)c3n2)CC1` is reported as 45800 a.u. and 44300 a.u. and 34700 a.u.
`CCn1cnc2c(NCc3nc4cc(Cl)c(Cl)cc4[nH]3)nc(N3CCN(C(=O)c4ccccn4)CC3)nc21` has a luminescence signal of 13700 a.u. and 13600 a.u. and 14900 a.u.
The luminescence signal of `Cn1cc(-n2cnc3c(NCc4nc5cc(Cl)c(Cl)cc5[nH]4)nc(N4CCNCC4)nc32)cn1` is reported as 7900 a.u. and 10700 a.u. and 10500 a.u.
`CC(=O)N1CCN(c2nc(NCc3nc4cc(Cl)c(Cl)cc4[nH]3)c3ncn(C)c3n2)CC1` has a luminescence signal of 24300 a.u. and 37100 a.u. and 18800 a.u.
The luminescence signal of `CCn1cnc2c(NCc3nc4cc(Cl)c(Cl)cc4[nH]3)nc(N3CCN(C(=O)c4ccccc4)CC3)nc21` is reported as 15800 a.u. and 18000 a.u. and 15100 a.u.
With `CCCCOc1nc(NCc2nc3cc(Cl)c(Cl)cc3[nH]2)c2ncn(CC)c2n1` the luminescence signal was 16100 a.u. and 17200 a.u. and 22900 a.u.
`CCn1cnc2c(NCc3nc4cc(Cl)c(Cl)cc4[nH]3)nc(N3CCN(C(=O)[C@H](C)NC(C)=O)CC3)nc21` has a luminescence signal of 10900 a.u. and 14600 a.u. and 13400 a.u.
`CCn1cnc2c(NCc3nc4cc(F)c(F)cc4[nH]3)nc(N3CCn4ncnc4C3)nc21` gave a luminescence signal of 35300 a.u. and 38300 a.u. and 35900 a.u.
With `CC(=O)N1CCN(c2nc(NCc3nc4cc(Cl)c(Cl)cc4[nH]3)c3ncn(C(C)C)c3n2)CC1` the luminescence signal was 452000 a.u. and 487000 a.u. and 483000 a.u.
`CCn1cnc2c(NCc3nc4cc(Cl)c(Cl)cc4[nH]3)nc(N3CCn4ncnc4C3)nc21` has a luminescence signal of 18400 a.u. and 21300 a.u. and 18900 a.u.
For `CCn1cnc2c(NCc3nc4ccc(F)c(F)c4[nH]3)nc(N3CCn4ncnc4C3)nc21`, the luminescence signal was 13600 a.u. and 18000 a.u.
`CCn1cnc2c(NCc3nc4cc(Cl)c(Cl)cc4[nH]3)nc(N3CCN(S(C)(=O)=O)CC3)nc21` gave a luminescence signal of 12200 a.u. and 14100 a.u. and 13400 a.u.
The luminescence signal of `CCn1cnc2c(NCc3nc4cc(Cl)c(Cl)cc4[nH]3)nc(N3CCN(C(=O)c4ccncc4)CC3)nc21` is reported as 13800 a.u. and 11500 a.u. and 14400 a.u.

Series 3
SMILES: C[C@@H]1CN(c2ccc(-c3cc(C(=O)NCCOCCOCCOCCOCCNC(=O)Cn4cc(-c5[nH]cc(C(=O)N[C@@H](CC(N)=O)c6ccc(F)c(Cl)c6)c5-c5ccc(Cl)cc5F)cn4)ccc3F)cc2NC(=O)c2c[nH]c(=O)cc2C(F)(F)F)C[C@H](C)N1C
Observed: thermal unfolding
Technique: differential scanning fluorimetry
Concentration: 5.5 µM
Direction: higher = more unfolded
DCAF1: DDB1- and CUL4-associated factor 1 (DCAF1, Homo sapiens, UniProt Q9Y4B6)
Sequence of UniProt Q9Y4B6 (whole entry, looked up): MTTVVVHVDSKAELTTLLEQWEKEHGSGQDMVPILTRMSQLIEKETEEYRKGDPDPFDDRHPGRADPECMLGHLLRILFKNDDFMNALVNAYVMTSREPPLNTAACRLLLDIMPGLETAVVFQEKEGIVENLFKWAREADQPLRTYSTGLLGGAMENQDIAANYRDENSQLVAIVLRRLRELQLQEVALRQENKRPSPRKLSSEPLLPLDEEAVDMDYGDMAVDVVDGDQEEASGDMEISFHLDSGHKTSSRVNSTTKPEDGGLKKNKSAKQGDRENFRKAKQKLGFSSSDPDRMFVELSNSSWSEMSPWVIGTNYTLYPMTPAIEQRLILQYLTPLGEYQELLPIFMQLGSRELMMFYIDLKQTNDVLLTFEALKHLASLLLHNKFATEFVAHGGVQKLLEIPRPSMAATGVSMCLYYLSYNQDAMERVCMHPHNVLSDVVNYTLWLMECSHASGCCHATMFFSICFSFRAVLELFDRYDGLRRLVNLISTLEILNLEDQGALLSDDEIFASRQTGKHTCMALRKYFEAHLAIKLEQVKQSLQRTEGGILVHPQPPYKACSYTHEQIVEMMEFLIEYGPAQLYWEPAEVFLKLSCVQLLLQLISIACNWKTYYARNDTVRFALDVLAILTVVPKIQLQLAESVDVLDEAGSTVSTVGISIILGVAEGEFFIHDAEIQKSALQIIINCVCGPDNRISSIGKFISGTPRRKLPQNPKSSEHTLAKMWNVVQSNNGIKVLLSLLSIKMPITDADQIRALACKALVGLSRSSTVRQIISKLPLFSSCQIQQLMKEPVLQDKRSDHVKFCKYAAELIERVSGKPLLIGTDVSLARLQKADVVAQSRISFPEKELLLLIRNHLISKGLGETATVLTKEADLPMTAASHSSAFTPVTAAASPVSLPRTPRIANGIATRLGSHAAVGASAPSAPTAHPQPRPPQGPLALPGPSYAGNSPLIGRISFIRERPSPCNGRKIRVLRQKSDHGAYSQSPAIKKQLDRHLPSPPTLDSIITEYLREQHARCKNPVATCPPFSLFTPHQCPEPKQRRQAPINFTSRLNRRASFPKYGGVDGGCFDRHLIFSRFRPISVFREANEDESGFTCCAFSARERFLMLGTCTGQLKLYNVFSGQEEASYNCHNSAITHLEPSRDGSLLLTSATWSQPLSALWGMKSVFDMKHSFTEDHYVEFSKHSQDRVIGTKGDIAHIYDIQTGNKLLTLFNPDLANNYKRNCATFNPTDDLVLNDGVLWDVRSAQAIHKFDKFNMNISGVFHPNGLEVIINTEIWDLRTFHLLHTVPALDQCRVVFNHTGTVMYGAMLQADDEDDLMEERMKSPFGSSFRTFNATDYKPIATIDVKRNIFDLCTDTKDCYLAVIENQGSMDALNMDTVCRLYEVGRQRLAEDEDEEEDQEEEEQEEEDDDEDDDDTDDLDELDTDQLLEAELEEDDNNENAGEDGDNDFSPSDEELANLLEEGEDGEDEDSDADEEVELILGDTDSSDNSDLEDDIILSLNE
WDR5: WD repeat-containing protein 5 (WDR5, Homo sapiens, UniProt P61964)
The “SYPRO Orange fluorescence” was 32300 a.u. (DCAF1; 92.81 °C).
The “SYPRO Orange fluorescence” was 17300 a.u. (DCAF1; 53.61 °C).
For DCAF1; 94.81 °C: “SYPRO Orange fluorescence” read 30100 a.u.
The “SYPRO Orange fluorescence” was 37900 a.u. (WDR5; 84.41 °C).
For WDR5; 74.01 °C: “SYPRO Orange fluorescence” read 9550 a.u.
It gave 12800 a.u. for “SYPRO Orange fluorescence” (DCAF1; 46.2 °C).
The “SYPRO Orange fluorescence” was 8570 a.u. (WDR5; 73.21 °C).
It gave 6730 a.u. for “SYPRO Orange fluorescence” (WDR5; 69.21 °C).
DCAF1; 71.81 °C — “SYPRO Orange fluorescence”: 52500 a.u.
For WDR5; 45.2 °C: “SYPRO Orange fluorescence” read 14300 a.u.
It gave 8130 a.u. for “SYPRO Orange fluorescence” (DCAF1; 29.4 °C).

Series 4
Target: E3 ubiquitin-protein ligase NEDD4, HECT domain (Homo sapiens, UniProt P46934)
Observed: enzyme activity
Action: inhibitor
Technique: Ub-TR-FRET
Sample: HECT domain
Concentration: 100 µM
Direction: higher = more chain formation
Construct (P46934 938-1319, limits assumed): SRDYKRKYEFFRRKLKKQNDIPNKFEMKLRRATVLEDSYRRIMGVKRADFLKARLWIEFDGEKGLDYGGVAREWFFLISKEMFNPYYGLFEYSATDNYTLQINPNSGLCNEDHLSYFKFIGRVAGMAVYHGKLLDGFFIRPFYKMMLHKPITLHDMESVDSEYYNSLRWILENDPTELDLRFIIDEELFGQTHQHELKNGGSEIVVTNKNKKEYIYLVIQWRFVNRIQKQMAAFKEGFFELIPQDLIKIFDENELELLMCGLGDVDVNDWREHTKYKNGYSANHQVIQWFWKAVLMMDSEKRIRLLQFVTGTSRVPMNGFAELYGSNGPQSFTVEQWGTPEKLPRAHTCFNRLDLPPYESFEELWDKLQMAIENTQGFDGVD
`CCOC(=O)/C=C/CNCCCCN1c2ccccc2COc2ccc(Cl)cc21.O=C(O)/C=C\C(=O)O`: “ubiquitin chain formation AUC” 10500 a.u. and 11100 a.u. and 10400 a.u.
For `COC(=O)CCCNCCCN1c2ccccc2CCc2ccc(Cl)cc21.COC(=O)CCCNCCCN1c2ccccc2CCc2ccc(Cl)cc21.O=C(O)/C=C/C(=O)O`, “ubiquitin chain formation AUC” read 76300 a.u. and 64200 a.u. and 79300 a.u.
`CNCCCN1c2ccccc2CCc2ccc(Cl)cc21`: “ubiquitin chain formation AUC” 104000 a.u. and 31000 a.u. and 26200 a.u. and 109000 a.u. and 23800 a.u.
`CCONC(=O)/C=C/CNCCCCN1c2ccccc2CCc2ccc(Cl)cc21.O=C(O)/C=C\C(=O)O`: “ubiquitin chain formation AUC” 6580 a.u. and 7270 a.u. and 7370 a.u. and 7360 a.u. and 7060 a.u. and 6930 a.u.
For `CCOC(=O)/C=C/CNCCCCN1c2cc(Cl)ccc2CCc2cnn(C)c21.O=C(O)/C=C\C(=O)O`, “ubiquitin chain formation AUC” read 6880 a.u. and 6460 a.u. and 5960 a.u. and 5210 a.u. and 7100 a.u. and 5300 a.u.
`CCOC(=O)/C=C/CN(CCCCN1c2ccccc2CCc2ccc(Cl)cc21)C(C)C.O=C(O)/C=C\C(=O)O` — result for “ubiquitin chain formation AUC”: 11500 a.u. and 11100 a.u. and 14800 a.u. and 11400 a.u. and 14600 a.u. and 15500 a.u.
Under “ubiquitin chain formation AUC”, `CN(C)C/C=C/C(=O)NCCCN1c2ccccc2CCc2ccc(Cl)cc21` is recorded as 84500 a.u. and 75800 a.u. and 76300 a.u.
`CN(C)C(=O)/C=C/CNCCCN1c2ccccc2CCc2ccc(Cl)cc21.Cl` — result for “ubiquitin chain formation AUC”: 100000 a.u. and 101000 a.u. and 105000 a.u.
`Cl.NC(=O)/C=C/CNCCCN1c2ccccc2CCc2ccc(Cl)cc21`: “ubiquitin chain formation AUC” 67600 a.u. and 71500 a.u. and 76000 a.u.
For `CONC(=O)/C=C/CNCCCCN1c2ccccc2CCc2ccc(Cl)cc21.O=C(O)/C=C\C(=O)O`, “ubiquitin chain formation AUC” read 7400 a.u. and 7160 a.u. and 7490 a.u. and 7560 a.u. and 7810 a.u. and 7840 a.u.
`CCOC(=O)/C=C/CNCCCCN1c2cc(Cl)ccc2COc2ccccc21.O=C(O)/C=C\C(=O)O` — result for “ubiquitin chain formation AUC”: 12800 a.u. and 13000 a.u.
Under “ubiquitin chain formation AUC”, `CCOC(=O)/C=C/CN(CC)CCCCN1c2ccccc2CCc2ccc(Cl)cc21.O=C(O)/C=C\C(=O)O` is recorded as 11600 a.u. and 12000 a.u. and 13000 a.u. and 12200 a.u.
`CCOC(=O)/C=C/CNCCCCN1c2cc(Cl)ccc2C(=O)N(C)c2ccccc21.O=C(O)/C=C\C(=O)O` — result for “ubiquitin chain formation AUC”: 7550 a.u. and 7940 a.u. and 7400 a.u.

A few entries again (series 1):
MKNK1 (Homo sapiens, UniProt Q9BUB5); binding, competition with immobilised ligand; 1 µM — remaining binding: 94%.
It gave 71% for remaining binding (PRKG2 (Homo sapiens, UniProt Q13237); binding, competition with immobilised ligand; 1 µM).
PIK3CA (Homo sapiens, UniProt P42336, H1047L); binding, competition with immobilised ligand; 1 µM — remaining binding: 84%.
It gave 58% for remaining binding (FYN (Homo sapiens, UniProt P06241); binding, competition with immobilised ligand; 1 µM).
CLK1 (Homo sapiens, UniProt P49759); binding, competition with immobilised ligand; 1 µM — remaining binding: 96%.
It gave 100% for remaining binding (MTOR (Homo sapiens, UniProt P42345); binding, competition with immobilised ligand; 1 µM).
PLK3 (Homo sapiens, UniProt Q9H4B4); binding, competition with immobilised ligand; 1 µM — remaining binding: 78%.
It gave 99% for remaining binding (FLT3 ITD human; KINOMEscan; 1000 nM; baseline: DMSO control).
It gave 100% for remaining binding (RIOK1 (Homo sapiens, UniProt Q9BRS2); binding, competition with immobilised ligand; 1 µM).
